{"data": "Experimental data pooled from the literature", "note": "Parts stem from different laboratories: compare values within a part only."}
{"data": "Block 1", "target": "Fragile X messenger ribonucleoprotein 1, C-terminal low-complexity region (Fmr1, Mus musculus, UniProt P35922)", "method": "RNA Bind-n-Seq", "molecule type": "RNA", "sample": "in vitro", "concentration": "200 nM", "notes": "whole 134-nt RNA, ends assumed", "added": "150 mM LiCl", "relative to": "input library", "direction": "higher = stronger binding", "library": "7-deaza-guanosine replaces G", "all sequences stand within": "GGGAGUUCUACAGUCCGACGAUC … UGGAAUUCUCGGGUGUCAAGG"}
{"Sequence": "AAGUCCUGUGCUACACAUCGUAUGUACCGAAUCGGGCCCCGGGCCCCGGCCCCGGGGAAAGUAUUAUGUUACGCCGUUCGGAUCUGCACU", "log2 enrichment": -2.07}
{"Sequence": "AGUCCUGUGCUACACAUCGUAUGUACCGAAUCGGGUUUGGGUUUGGGAAAAAAAGGGAAAGUAUUAUGUUACGCCGUUCGGAUCUGCACU", "log2 enrichment": -1.83}
{"Sequence": "UCAAGUCCUGUGCUACACAUCGUAUGUACCGAAUCGGGCCCGGCCCGGCCCGGGAAAGUAUUAUGUUACGCCGUUCGGAUCUGCACUUCC", "log2 enrichment": -1.59}
{"Sequence": "AGUCCUGUGCUACACAUCGUAUGUACCGAAUCGGGUUUUUGGUUUUUGGGUUUUUGGGAAAGUAUUAUGUUACGCCGUUCGGAUCUGCAC", "log2 enrichment": -1.45}
{"Sequence": "GCAGGAAGUAAAAACAAAUGGAAAUGCUUCGGAUAGUGGCAGGGGUGGGGGUUGUUAAGGAAAGGGUGGGAUGGGAGUGGGUAAAGAGUU", "log2 enrichment": 1.66}
{"Sequence": "CACAGACAACACUCACCCACACAGACACAGAGGGAAGGGGUUGGGAUGGGGACAGGGUGCACAGCAGGGCGGGGUAGGACCCCAGCCCCU", "log2 enrichment": 0.189}
{"Sequence": "UGGCCCUGGUGGCAUGCGGGGAGGAAGAGGUGGCCUCAUGGAUCGUGGUGGUCCCGCUGGAAUGUUCAGAGGUGGCCGUGGUGGAGACAG", "log2 enrichment": -0.593}
{"Sequence": "UGGCCCUGGUGGCAUGCGGGGAGGAAGAGGUGGCCUCAUGGAUCGUGGUGGUCCCGGUGGAAUGUUCAGUGGUGGCCGUGGUGGAGACAG", "log2 enrichment": 0.0262}
{"data": "Block 2", "target": "Max dimerization protein 1, bHLH-zipper, MAX partner unstated (MXD1, Homo sapiens, UniProt Q05195, residues 56-136)", "method": "protein-binding microarray", "molecule type": "double-stranded DNA, one strand shown", "sample": "in vitro", "concentration": "not given", "notes": "k-mer, scored over probes, only values ≥0.25", "direction": "higher = stronger binding", "Residues (chain)": "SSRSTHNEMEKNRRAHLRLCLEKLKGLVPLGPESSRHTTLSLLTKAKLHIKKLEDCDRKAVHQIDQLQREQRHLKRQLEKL"}
{"Sequence": "GGGGGAGA", "E-score": 0.268}
{"Sequence": "AACACGCA", "E-score": 0.272}
{"Sequence": "GACACGCA", "E-score": 0.274}
{"Sequence": "CACGTGAA", "E-score": 0.475}
{"Sequence": "ATGGCGTG", "E-score": 0.292}
{"Sequence": "CGTTATCC", "E-score": 0.26}
{"Sequence": "AGCACGCG", "E-score": 0.416}
{"Sequence": "GGCACCAC", "E-score": 0.269}
{"Sequence": "ACTCGTGA", "E-score": 0.301}
{"Sequence": "ACGTGTTA", "E-score": 0.432}
{"Sequence": "GAGCACGC", "E-score": 0.419}
{"Sequence": "CACGCTAC", "E-score": 0.311}
{"Sequence": "TCACGTGA", "E-score": 0.47}
{"data": "Block 3", "target": "Histone acetyltransferase KAT6A, winged helix 2, GST fusion (KAT6A, Homo sapiens, UniProt Q92794, residues 85-181)", "method": "protein binding microarray", "molecule type": "double-stranded DNA, one strand shown", "sample": "in vitro", "concentration": "not given", "notes": "8-mer, flanks averaged, mean of 2 arrays, mostly near background", "relative to": "not given", "direction": "higher = stronger binding", "Construct (chain)": "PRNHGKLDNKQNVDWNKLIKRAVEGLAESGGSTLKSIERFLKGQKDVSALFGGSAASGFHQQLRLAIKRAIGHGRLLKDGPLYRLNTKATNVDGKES"}
{"Sequence": "GAAACGAA", "E-score": 0.041}
{"Sequence": "GAAAAGAC", "E-score": -0.0426}
{"Sequence": "CCGTGGAG", "E-score": 0.0842}
{"Sequence": "GATAATGA", "E-score": 0.032}
{"Sequence": "CACGAAGG", "E-score": 0.102}
{"Sequence": "AAAACCAA", "E-score": -0.00594}
{"Sequence": "CTGGATAC", "E-score": 0.019}
{"Sequence": "TGGTAAAA", "E-score": 0.155}
{"Sequence": "ACTGCAGG", "E-score": -0.0284}
{"Sequence": "GTTTAGAA", "E-score": 0.0629}
{"data": "Further values, each from its own experiment"}
{"Substance": "PhoQ, residues 284 288 289 292 302 303 AQGLTV", "target": "PhoP, residues 12 14 15 18 19 AQCLL (Escherichia coli, UniProt P23836)", "assay": "Sort-seq, refers to: YFP reporter", "system": "E. coli", "conditions": "PhoQ-PhoP variant library, added: 10 µM Mg2+", "how to read": "relative to: high Mg2+ state, higher = stronger signaling", "measurement": "fold induction", "value": 3.54}
{"note": "Some of these lines once more (block 2):"}
{"Sequence": "TCACGTGA", "E-score": 0.47}
{"Sequence": "ACGTGTTA", "E-score": 0.432}
{"Sequence": "GGCACCAC", "E-score": 0.269}
{"Sequence": "ATGGCGTG", "E-score": 0.292}
